Assay results collected from several papers.
Organism: Enterobacter cloacae

Compound | test | system | MIC
CC[S+]([O-])C1C(CO)OC(OC2C(N)CC(N)C(O)C2OC2OC(CO)C(OC3OC(CN)C(O)C(O)C3N)C2O)C(N)C1O (mixture of isomers) |  | AG290 | 64 µg/mL
CC(C)C[C@H](NC(=O)[C@H](CC(N)=O)NC(=O)[C@H](CCCNC(=N)N)NC(=O)[C@@H](CC(C)C)NC(=O)[C@H](Cc1ccc(-c2ccccc2)cc1)NC(=O)[C@H](CC(=O)O)NC(=O)[C@H](CCCCN)NC(=O)[C@@H](CC(C)C)NC(=O)[C@H](CCCNC(=N)N)NC(=O)[C@H](CCC(N)=O)NC(=O)[C@@H](NC(=O)[C@@H](CC(C)C)NC(=O)[C@H](CCCNC(=N)N)NC(=O)[C@H](CCCCN)NC(=O)[C@H](Cc1ccc(-c2ccccc2)cc1)NC(=O)CN)C(C)C)C(=O)N[C@H](C(N)=O)C(C)C | broth microdilution | B2366-12 | 3.1 µM
CCS(=O)(=O)[C@H]1[C@H](O)[C@@H](N)[C@@H](O[C@H]2[C@H](O[C@@H]3O[C@H](CO)[C@@H](O[C@H]4O[C@@H](CN)[C@@H](O)[C@H](O)[C@H]4N)[C@H]3O)[C@@H](O)[C@H](N)C[C@@H]2N)O[C@@H]1CO |  | AG290 | > 128 µg/mL
CO[C@@H](C(N)=O)[C@H](NC(=O)c1ccc(NC(=O)c2ccc([N+](=O)[O-])cc2)cc1)C(=O)Nc1ccc(C(=O)Nc2ccc(C(=O)Nc3ccc(C(=O)O)cc3)c(O)c2OC(C)C)cc1 | microbial growth | DSM30054 | > 64 µg/mL
CC(C)C[C@H](NC(=O)[C@H](CC(N)=O)NC(=O)[C@H](CCCNC(=N)N)NC(=O)[C@@H](CC(C)C)NC(=O)[C@H](Cc1ccccc1)NC(=O)[C@H](CC(=O)O)NC(=O)[C@H](CCCCN)NC(=O)[C@@H](CC(C)C)NC(=O)[C@H](CCCNC(=N)N)NC(=O)[C@H](CCC(N)=O)NC(=O)[C@@H](NC(=O)[C@@H](CC(C)C)NC(=O)[C@H](CCCNC(=N)N)NC(=O)[C@H](CCCCN)NC(=O)[C@H](Cc1ccc(C(F)(F)F)cc1)NC(=O)CN)C(C)C)C(=O)N[C@H](C(N)=O)C(C)C | broth microdilution | B2366-12 | 25 µM
CC[P+](CC)(CC)[Au-][S][C@@H]1O[C@H](COC(C)=O)[C@@H](OC(C)=O)[C@H](OC(C)=O)[C@H]1NC(=O)C(Cl)(Cl)Cl |  | NCTC 13405 | > 328 µM
c1ccc(CN2CCOCCOCCN(CCCCCCCCCCCCCCN3CCOCCOCCN(CCCCCCCCCCCCCCN4CCOCCOCCN(Cc5ccccc5)CCOCCOCC4)CCOCCOCC3)CCOCCOCC2)cc1 | microbial growth |  | 24 µM
CCCS[C@H]1[C@H](O)[C@@H](N)[C@@H](O[C@H]2[C@H](O[C@@H]3O[C@H](CO)[C@@H](O[C@H]4O[C@@H](CN)[C@@H](O)[C@H](O)[C@H]4N)[C@H]3O)[C@@H](O)[C@H](N)C[C@@H]2N)O[C@@H]1CO |  | AG290 | 2 µg/mL
CC(C)C[C@H](NC(=O)[C@H](CC(N)=O)NC(=O)[C@H](CCCNC(=N)N)NC(=O)[C@@H](CC(C)C)NC(=O)[C@H](Cc1ccc2ccccc2c1)NC(=O)[C@H](CC(=O)O)NC(=O)[C@H](CCCCN)NC(=O)[C@@H](CC(C)C)NC(=O)[C@H](CCCNC(=N)N)NC(=O)[C@H](CCC(N)=O)NC(=O)[C@@H](NC(=O)[C@@H](CC(C)C)NC(=O)[C@H](CCCNC(=N)N)NC(=O)[C@H](CCCCN)NC(=O)[C@H](Cc1ccccc1)NC(=O)CN)C(C)C)C(=O)N[C@H](C(N)=O)C(C)C | broth microdilution | B2366-12 | 12.5 µM
CC(C)S[C@H]1[C@H](O)[C@@H](N)[C@@H](O[C@H]2[C@H](O[C@@H]3O[C@H](CO)[C@@H](O[C@H]4O[C@@H](CN)[C@@H](O)[C@H](O)[C@H]4N)[C@H]3O)[C@@H](O)[C@H](N)C[C@@H]2N)O[C@@H]1CO |  | AG290 | 8 µg/mL
c1ccc(CN2CCOCCOCCN(CCCCCCCCCCN3CCOCCOCCN(CCCCCCCCCCN4CCOCCOCCN(Cc5ccccc5)CCOCCOCC4)CCOCCOCC3)CCOCCOCC2)cc1 |  | meropenem-resistant | 26 µM
CC(C)C[C@H](NC(=O)[C@H](CC(N)=O)NC(=O)[C@H](CCCNC(=N)N)NC(=O)[C@@H](CC(C)C)NC(=O)[C@H](Cc1ccccc1)NC(=O)[C@H](CC(=O)O)NC(=O)[C@H](CCCCN)NC(=O)[C@@H](CC(C)C)NC(=O)[C@H](CCCNC(=N)N)NC(=O)[C@H](CCC(N)=O)NC(=O)[C@@H](NC(=O)[C@@H](CC(C)C)NC(=O)[C@H](CCCNC(=N)N)NC(=O)[C@H](CCCCN)NC(=O)[C@H](Cc1ccccc1)NC(=O)CN)C(C)C)C(=O)N[C@H](C(N)=O)C(C)C | broth microdilution | B2366-12 | 25 µM
